Published values collected from several papers.
Compare with care: the assays were run in different laboratories. Numbers after ± are the reported error.
UniProt O60656, sequence (whole entry, looked up): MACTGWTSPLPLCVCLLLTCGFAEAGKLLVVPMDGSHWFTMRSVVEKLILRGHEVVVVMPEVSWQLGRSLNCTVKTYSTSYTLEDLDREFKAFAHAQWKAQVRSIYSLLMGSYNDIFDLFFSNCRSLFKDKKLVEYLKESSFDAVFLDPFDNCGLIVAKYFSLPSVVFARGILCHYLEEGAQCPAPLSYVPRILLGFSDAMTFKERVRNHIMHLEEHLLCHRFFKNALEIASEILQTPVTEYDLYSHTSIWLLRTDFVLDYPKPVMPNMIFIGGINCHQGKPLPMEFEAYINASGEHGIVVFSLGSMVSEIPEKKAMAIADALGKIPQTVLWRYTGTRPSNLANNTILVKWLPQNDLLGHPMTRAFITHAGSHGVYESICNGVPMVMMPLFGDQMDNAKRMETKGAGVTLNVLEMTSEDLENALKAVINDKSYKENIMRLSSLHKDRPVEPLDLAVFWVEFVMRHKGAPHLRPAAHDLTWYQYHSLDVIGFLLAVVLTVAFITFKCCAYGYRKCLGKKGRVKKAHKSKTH

Molecule = UGT1A9 (Homo sapiens, UniProt O60656); target or system = O=c1cc(-c2ccccc2)oc2cc(O)ccc12; assay = steady-state kinetics; setting = pH 7.4, 37 °C; measurement = Km; value = 3.59 µM
Molecule = Insulin human; assay = ELISA; test system = rat, brainstem; setting = intranasal, 20 µg per nostril, 15 min; measurement = concentration; value = 258 ± 176 pg/mg tissue
Molecule = NPH insulin; assay = radioimmunoassay, refers to: insulin; test system = female non-fasted rat, serum; setting = 5 IU/kg, 1 to 24 h, dose 371; measurement = Cmax; value = 2250 µIU/mL
Molecule = insulin degludec; assay = ELISA; test system = human mild renal impairment, serum; setting = dose not given, single dose; scale = reference: impaired over normal renal function; measurement = AUC(0-inf) ratio; value = 1.11
Molecule = CSCC[C@H](NC(=O)[C@H](CC(C)C)NC(=O)[C@H](Cc1c[nH]cn1)NC(=O)CNC(=O)[C@@H](NC(=O)[C@H](C)NC(=O)[C@H](Cc1c[nH]c2ccccc12)NC(=O)[C@H](CCC(N)=O)NC(=O)CCCCCNC(=O)[C@H](CCC(=O)NCCCC[C@@H]1NC(=O)[C@@H](Cc2ccc(O)cc2)NC(=O)[C@H](CC(=O)O)NC(=O)CNC(=O)[C@H](CCCNC(=N)N)NC1=O)NC(=O)CN1CCN(CC(=O)O)CCN(CC(=O)O)CC1)C(C)C)C(N)=O [copper-64 labelled]; test system = ICR SCID mouse, female, spleen; setting = intravenous, 750 kBq, 4 h; measurement = tissue uptake; value = 1.06 ± 0.43 %ID/g
Molecule = COc1cccc2c1C(=O)c1c(O)c3c(c(O)c1C2=O)C[C@@](O)(C(=O)CO)C[C@@H]3O[C@H]1C[C@H](NC(=O)[C@@H]2CCCN2C(=O)CNC(=O)[C@@H](N)CC(C)C)[C@H](O)[C@H](C)O1; test system = mouse, E0771 tumour-bearing, plasma; setting = intravenous, 92 µmol/kg PhAc-ALGP-Dox; measurement = AUC; value = 0.133 µM·h
Molecule = insulin aspart; test system = obese type 2 diabetes patients, serum; setting = subcutaneous, 0.2 U/kg, geometric mean; measurement = AUC(0-1 h); value = 0.000138 µM·h
Molecule = CC(C)[C@H](NC(=O)[C@@H]1CCCN1C(=O)[C@H](CCCNC(=N)N)NC(=O)[C@H](CS)NC(=O)[C@H](Cc1c[nH]c2ccccc12)NC(=O)[C@H](CCCNC(=N)N)NC(=O)[C@@H](Cc1ccccc1)NC(=O)[C@H](Cc1c[nH]cn1)NC(=O)[C@H](CCC(=O)O)NC(=O)[C@H](CS)NC(=O)[C@H](CS)NC(=O)[C@H](CCCCN)NC(=O)[C@@H]1CC(=O)N[C@@H](CCCNC(=N)N)C(=O)N[C@@H](C)C(=O)N[C@@H](CC(=O)O)C(=O)N[C@H](Cc2ccc(O)cc2)C(=O)N1)C(N)=O [technetium-99m labelled]; test system = C57 mice, stomach; setting = intravenous, 0.037 MBq, 0.5 h; measurement = tissue uptake; value = 2.5 ± 0.16 %ID/g
Molecule = rnpA F107W (Bacillus subtilis); assay = NMR, refers to: His105; setting = 25 °C, 0.50 M NaCl, folded, sulfate-bound, numbering of the source, added: sulfate 20 mM; measurement = pKa; value = 5.61

Excerpt of the above:
Molecule = rnpA F107W (Bacillus subtilis); assay = NMR, refers to: His105; setting = 25 °C, 0.50 M NaCl, folded, sulfate-bound, numbering of the source, added: sulfate 20 mM; measurement = pKa; value = 5.61
